Assay results pooled from the literature.
Protocols differ between the studies behind these lines. ± gives the spread as reported.
SRC SH3-SH2-kinase domain: Proto-oncogene tyrosine-protein kinase Src, SH3-SH2-kinase domain (SRC, Gallus gallus, UniProt P00523)
Sequence of UniProt P80457 (whole entry, looked up): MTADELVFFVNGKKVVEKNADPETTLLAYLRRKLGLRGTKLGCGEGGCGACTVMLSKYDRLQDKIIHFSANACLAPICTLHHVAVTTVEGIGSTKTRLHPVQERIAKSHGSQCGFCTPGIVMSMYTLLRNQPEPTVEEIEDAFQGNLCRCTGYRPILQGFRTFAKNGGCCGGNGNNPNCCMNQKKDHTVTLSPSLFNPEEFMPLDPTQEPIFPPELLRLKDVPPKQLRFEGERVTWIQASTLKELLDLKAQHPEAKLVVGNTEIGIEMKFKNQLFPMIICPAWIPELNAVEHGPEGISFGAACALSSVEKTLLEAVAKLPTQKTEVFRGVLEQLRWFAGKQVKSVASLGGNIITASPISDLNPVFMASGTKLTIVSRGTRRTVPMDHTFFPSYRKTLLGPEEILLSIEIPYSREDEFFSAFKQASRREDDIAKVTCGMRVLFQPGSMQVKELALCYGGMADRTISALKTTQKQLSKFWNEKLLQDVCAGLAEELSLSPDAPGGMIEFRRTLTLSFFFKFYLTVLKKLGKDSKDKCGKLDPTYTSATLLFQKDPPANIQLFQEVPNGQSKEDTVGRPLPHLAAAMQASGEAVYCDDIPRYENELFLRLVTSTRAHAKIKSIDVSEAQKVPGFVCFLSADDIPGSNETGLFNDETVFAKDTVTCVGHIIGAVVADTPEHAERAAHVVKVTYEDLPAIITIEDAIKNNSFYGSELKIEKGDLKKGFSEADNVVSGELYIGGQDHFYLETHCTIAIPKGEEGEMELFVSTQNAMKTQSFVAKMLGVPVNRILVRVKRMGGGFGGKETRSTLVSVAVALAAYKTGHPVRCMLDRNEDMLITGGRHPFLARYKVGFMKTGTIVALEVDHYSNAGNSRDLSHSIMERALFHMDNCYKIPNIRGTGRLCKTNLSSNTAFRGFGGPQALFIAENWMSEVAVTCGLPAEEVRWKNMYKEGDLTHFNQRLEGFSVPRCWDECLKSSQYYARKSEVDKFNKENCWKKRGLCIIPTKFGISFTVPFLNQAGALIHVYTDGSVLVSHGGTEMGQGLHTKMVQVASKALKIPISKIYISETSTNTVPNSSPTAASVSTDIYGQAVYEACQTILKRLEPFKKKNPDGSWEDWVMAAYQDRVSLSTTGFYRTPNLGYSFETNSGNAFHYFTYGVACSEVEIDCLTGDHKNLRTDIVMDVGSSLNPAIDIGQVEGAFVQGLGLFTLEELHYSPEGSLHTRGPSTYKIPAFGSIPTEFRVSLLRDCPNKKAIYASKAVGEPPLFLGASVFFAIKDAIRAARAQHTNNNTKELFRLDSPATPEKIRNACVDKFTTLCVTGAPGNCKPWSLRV
Sequence of UniProt O15075 (whole entry, looked up): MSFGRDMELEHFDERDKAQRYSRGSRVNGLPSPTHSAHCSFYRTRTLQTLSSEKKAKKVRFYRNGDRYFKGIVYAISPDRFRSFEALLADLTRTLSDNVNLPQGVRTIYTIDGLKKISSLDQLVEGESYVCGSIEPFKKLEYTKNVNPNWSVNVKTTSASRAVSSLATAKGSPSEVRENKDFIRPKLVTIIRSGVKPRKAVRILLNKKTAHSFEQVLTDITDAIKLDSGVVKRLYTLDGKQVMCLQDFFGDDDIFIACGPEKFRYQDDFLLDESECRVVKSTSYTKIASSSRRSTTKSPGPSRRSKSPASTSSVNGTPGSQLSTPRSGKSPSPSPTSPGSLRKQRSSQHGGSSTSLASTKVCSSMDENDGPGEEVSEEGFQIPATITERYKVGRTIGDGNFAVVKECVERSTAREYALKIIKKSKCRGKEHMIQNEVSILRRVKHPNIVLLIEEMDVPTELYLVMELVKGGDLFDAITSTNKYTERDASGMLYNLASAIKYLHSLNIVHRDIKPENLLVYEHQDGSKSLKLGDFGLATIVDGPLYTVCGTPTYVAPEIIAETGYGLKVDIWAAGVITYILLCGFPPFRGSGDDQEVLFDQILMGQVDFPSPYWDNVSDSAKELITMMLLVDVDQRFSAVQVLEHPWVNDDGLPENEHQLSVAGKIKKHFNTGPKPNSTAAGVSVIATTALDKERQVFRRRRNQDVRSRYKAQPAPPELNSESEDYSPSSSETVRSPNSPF
Sequence of UniProt Q9LMA8 (whole entry, looked up): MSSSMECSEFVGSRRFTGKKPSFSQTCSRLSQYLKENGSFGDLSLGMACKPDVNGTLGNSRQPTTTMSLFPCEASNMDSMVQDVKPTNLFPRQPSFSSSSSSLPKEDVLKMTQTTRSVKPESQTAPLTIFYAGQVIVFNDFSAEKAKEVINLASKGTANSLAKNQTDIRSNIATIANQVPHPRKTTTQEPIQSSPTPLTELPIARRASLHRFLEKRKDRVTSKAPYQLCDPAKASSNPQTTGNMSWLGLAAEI
Sequence of UniProt Q9NR56 (whole entry, looked up): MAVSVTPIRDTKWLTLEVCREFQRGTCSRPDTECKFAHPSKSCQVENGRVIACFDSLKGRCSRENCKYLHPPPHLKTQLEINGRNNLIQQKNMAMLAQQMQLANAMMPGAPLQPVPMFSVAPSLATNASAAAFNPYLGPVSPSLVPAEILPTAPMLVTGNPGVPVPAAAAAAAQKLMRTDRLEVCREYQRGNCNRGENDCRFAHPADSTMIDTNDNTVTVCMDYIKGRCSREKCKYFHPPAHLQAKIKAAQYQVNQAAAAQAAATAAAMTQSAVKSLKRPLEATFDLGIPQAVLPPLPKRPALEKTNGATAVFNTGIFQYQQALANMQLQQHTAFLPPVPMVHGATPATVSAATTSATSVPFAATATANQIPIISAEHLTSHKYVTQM
Sequence of UniProt P06730 (whole entry, looked up): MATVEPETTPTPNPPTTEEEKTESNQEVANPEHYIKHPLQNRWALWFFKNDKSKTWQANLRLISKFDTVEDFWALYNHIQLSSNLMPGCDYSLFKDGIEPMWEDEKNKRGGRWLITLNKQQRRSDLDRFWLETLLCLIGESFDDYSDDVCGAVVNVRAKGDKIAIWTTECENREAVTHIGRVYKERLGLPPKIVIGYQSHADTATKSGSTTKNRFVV
Sequence of UniProt P50897 (whole entry, looked up): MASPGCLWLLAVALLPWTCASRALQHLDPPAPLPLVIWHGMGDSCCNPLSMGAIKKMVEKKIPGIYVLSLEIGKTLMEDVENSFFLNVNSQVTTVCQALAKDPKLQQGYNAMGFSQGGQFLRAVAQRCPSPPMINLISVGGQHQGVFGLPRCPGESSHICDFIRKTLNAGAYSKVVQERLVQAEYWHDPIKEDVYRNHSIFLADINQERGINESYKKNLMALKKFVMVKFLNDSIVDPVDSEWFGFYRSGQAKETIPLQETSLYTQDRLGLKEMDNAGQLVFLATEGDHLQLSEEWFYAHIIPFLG
Sequence of UniProt Q2HRB6 (whole entry, looked up): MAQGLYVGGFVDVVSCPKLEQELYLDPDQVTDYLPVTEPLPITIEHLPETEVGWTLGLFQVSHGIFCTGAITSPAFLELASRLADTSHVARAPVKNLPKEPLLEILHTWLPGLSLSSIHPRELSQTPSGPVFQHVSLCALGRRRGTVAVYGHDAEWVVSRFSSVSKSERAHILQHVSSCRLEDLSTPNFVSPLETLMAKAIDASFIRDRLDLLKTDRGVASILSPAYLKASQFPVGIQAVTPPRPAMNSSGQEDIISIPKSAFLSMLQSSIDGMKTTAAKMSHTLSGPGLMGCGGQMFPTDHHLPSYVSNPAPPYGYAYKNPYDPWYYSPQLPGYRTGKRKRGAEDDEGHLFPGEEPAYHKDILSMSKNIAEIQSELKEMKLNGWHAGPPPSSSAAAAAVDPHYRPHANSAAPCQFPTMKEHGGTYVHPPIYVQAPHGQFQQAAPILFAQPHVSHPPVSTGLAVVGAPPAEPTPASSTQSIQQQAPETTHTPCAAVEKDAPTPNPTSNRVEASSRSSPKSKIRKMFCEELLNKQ
Sequence of UniProt P43351 (whole entry, looked up): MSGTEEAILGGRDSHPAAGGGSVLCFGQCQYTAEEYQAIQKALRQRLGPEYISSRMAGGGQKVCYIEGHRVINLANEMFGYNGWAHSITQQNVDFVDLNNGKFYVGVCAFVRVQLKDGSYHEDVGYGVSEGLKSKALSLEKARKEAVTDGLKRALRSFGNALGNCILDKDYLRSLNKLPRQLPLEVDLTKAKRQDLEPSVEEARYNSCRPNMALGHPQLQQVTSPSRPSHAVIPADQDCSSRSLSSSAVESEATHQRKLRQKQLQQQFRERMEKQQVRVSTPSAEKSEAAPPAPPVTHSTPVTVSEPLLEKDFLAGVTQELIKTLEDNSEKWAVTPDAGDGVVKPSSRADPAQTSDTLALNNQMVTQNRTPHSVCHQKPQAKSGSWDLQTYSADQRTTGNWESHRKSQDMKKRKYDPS
Sequence of UniProt Q9H8M2 (whole entry, looked up): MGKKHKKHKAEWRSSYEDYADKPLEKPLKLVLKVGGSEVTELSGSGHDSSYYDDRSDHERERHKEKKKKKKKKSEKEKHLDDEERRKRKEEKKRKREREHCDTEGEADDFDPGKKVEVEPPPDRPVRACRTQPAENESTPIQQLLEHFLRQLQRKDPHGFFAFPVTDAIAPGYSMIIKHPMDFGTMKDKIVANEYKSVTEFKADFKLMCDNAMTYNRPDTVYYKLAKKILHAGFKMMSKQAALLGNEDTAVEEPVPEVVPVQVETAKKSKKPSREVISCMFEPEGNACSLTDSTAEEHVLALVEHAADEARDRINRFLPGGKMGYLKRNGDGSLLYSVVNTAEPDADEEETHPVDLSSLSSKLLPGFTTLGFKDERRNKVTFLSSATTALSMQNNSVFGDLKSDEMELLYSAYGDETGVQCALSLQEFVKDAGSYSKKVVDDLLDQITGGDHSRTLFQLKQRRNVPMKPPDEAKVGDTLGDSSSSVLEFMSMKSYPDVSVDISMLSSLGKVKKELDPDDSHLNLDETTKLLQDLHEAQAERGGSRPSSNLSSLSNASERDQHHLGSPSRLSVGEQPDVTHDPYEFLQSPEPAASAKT
Sequence of UniProt P61586 (whole entry, looked up): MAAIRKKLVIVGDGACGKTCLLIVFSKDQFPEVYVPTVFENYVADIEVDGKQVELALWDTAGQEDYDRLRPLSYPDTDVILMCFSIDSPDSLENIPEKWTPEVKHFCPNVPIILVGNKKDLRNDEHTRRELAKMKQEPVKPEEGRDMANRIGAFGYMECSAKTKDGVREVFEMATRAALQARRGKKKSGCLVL

Structure (SMILES)	tested on	assay	test system	setting	quantity	result
O=S(=O)(NCc1csc(-c2ccccc2)n1)c1ccc(Cl)c(Cl)c1	Trypanothione synthetase (Trypanosoma brucei, UniProt Q586P2)	enzyme activity, inhibitor	–	–	IC50	5.8 µM
CC(C)=CCN=C(N)NCCC[C@@H](NC(=O)CCCc1ccc(O)cc1)C(=O)N[C@@H](Cc1ccccc1)C(O)CC(=O)N[C@@H](Cc1ccc(O)cc1)C(=O)O (stereo in doubt)	ACE (Homo sapiens, UniProt P12821)	enzyme activity, inhibitor	–	–	IC50	> 100 µM
Cc1nn(-c2ccc(S(=O)(=O)N[C@@H](CO)CC(C)C)cc2)c2nn3nnnc3nc12	PC-3	PI/Hoechst staining	–	1 µM, 24 h	apoptotic cells	9.5 ± 0.7%
Clc1ccc(C(c2ccc(Cl)cc2)n2cc[n+](CC(OCc3ccc(Cl)cc3Cl)c3ccc(Cl)cc3Cl)c2)cc1 (stereo not shown)	Trypanothione synthetase (Trypanosoma brucei brucei, UniProt Q586P2)	enzyme activity, BIOMOL Green phosphate release	–	1 h preincubation	IC50	10 µM
CCCC1=C(CO)C(=O)CC(O)C1 (stereo not shown)	PTPN6 (Homo sapiens, UniProt P29350)	enzyme activity, inhibitor, absorbance	–	–	IC50	> 72.4 µM
CC(C)(C)S(=O)(=O)Cc1nc(-c2ccc(Cl)c(Cl)c2)cs1	Trypanothione synthetase (Trypanosoma brucei, UniProt Q586P2)	enzyme activity, inhibitor	–	–	IC50	2.5 µM
COc1cc(/C=C/c2cc(O)cc(O)c2)ccc1O	XDH (Bos taurus, UniProt P80457)	enzyme activity, inhibitor, absorbance	–	–	IC50	161 µM
COCCNc1nc(-c2nccn2C)nc2sc(-c3cccc(OC)c3Cl)c(-c3ccccc3)c12	RHOA (Homo sapiens, UniProt P61586)	GTP binding, inhibitor, cell-free GTP competition	–	with: fluorescent GTP 100 nmol/L	IC50	2.5 µM
NC(=O)[C@@H]1CCNC(=O)[C@H](CCCNC(=O)c2cnccn2)NC(=O)[C@H](CC2CCCCC2)NC(=O)[C@H](C/C=C/c2ccccc2)NC(=O)/C=C\C(=O)N1	SRC SH3-SH2-kinase domain	kinase activity, inhibitor	–	with: ATP 5 µM	IC50	27 µM
COc1ccccc1N1CCN(c2nc3c(c(=O)[nH]2)CCCC3)CC1	TNKS2 (Homo sapiens, UniProt Q9H2K2)	enzyme activity, inhibitor, ELISA	–	–	IC50	0.0423 µM
COC(=O)N1c2ccc3c(nc(Cc4ccccc4)n3[C@@H]3CCC[C@@H](C(=O)O)C3)c2CC[C@@H]1C	BRD9 (Homo sapiens, UniProt Q9H8M2)	binding, inhibitor, TR-FRET	–	–	IC50	26.7 µM
CC(=O)N1CCC[C@H]1C(=O)N[C@@H](CC/C=C/C(=O)N(C)C)C(=O)N[C@@H](CC(C)C)C(=O)N1CCC[C@H]1C(=O)N[C@@H](Cc1ccccc1)C(N)=O	TGM2 (Homo sapiens, UniProt P21980)	transamidase activity, inhibitor, GDH-coupled	–	pH 7.2, 25 °C	IC50	5.1 µM
CN1CCc2cc(Nc3ncc(C(F)(F)F)c(NCc4cc[nH]n4)n3)ccc2C1	MARK2 (Homo sapiens, UniProt Q7KZI7)	enzyme activity, inhibitor, FRET	–	–	IC50	0.0337 µM
CN(C(=O)c1ccn2ncc(-c3ccc(C(N)=O)cc3)c2c1)c1ccc(C#N)cn1	MMP8 (Homo sapiens, UniProt P22894)	enzyme activity, inhibitor	–	–	IC50	> 30 µM
Cn1c2c(c3ccc(Cl)c(Cl)c31)C(C#N)C1(CCNCC1)NC2=O (racemic)	ROCK2 (Homo sapiens, UniProt O75116)	enzyme activity, inhibitor	–	–	IC50	0.2 µM
COc1cc(OC(C)=O)c2cc3c(cc2c1OC(C)=O)CCCC3(C)C	DNA topoisomerase IB (Leishmania donovani, UniProt A0A3Q8IHS4+Q8WQM6)	DNA relaxation activity, inhibitor	–	with: supercoiled plasmid DNA	IC50	> 100 µM
Cn1c(=S)[nH]c2cc3ccccc3cc2c1=O	Genome polyprotein, protease (Hepatitis C virus genotype 1b, UniProt O92972)	enzyme activity, inhibitor, FRET	–	–	IC50	11 µM

Structure (SMILES)	tested on	assay	test system	setting	quantity	result
S=c1[nH]nc(Cn2nnc3ccccc32)n1/N=C/c1ccco1	Xanthine dehydrogenase/oxidase, oxidase form (XDH, Bos taurus, UniProt P80457)	enzyme activity, inhibitor	–	–	IC50	≤ 307 µM
CN1CCN(C2=Nc3ccccc3Nc3ccccc32)CC1	Palmitoyl-protein thioesterase 1 (Homo sapiens, UniProt P50897)	enzyme activity, inhibitor	–	–	IC50	> 100 µM
O=C1NC(=O)/C(=C/c2cccc(C(F)(F)F)c2)S1	COI1/TIFY10A (Arabidopsis thaliana, UniProt O04197+Q9LMA8)	–	–	–	IC50	17.7 µM
Cc1ccc2nc(-c3ccc(N=NNc4ccc(-c5nc6ccc(C)c(S(=O)(=O)O)c6s5)cc4)cc3)sc2c1S(=O)(=O)O	Genome polyprotein, NS3 helicase domain (Hepatitis C virus genotype 1b, UniProt Q9WMX2)	protein-DNA complex formation, inhibitor	–	with: Alexa Fluor 647-dT15 tracer	IC50	9 ± 4 µM
CC1=CC(=C(c2cc(C)c(O)c(C(=O)O)c2)c2cc(C)c(O)c(C(=O)O)c2)C=C(C(=O)O)C1=O	DNMT1 (Homo sapiens, UniProt P26358)	enzyme activity, inhibitor, radiometric	–	–	IC50	4.79 µM
CN(C)CCNC(=O)c1cccc2c(NCCCCc3c(N)nc(N)nc3N)c3ccccc3nc12	Muscleblind-like protein 1, with (CCUG)6 RNA (Homo sapiens, UniProt Q9NR56)	MBNL1-RNA binding, gel mobility shift	–	100 nM tRNA, with: (CCUG)6 RNA, 350 nM MBNL1	IC50	35 ± 3 µM
CC(C)C[C@H](NC(=O)[C@H](Cc1c[nH]cn1)NC(=O)[C@H](CC(=O)O)NC(=O)[C@H](CCCNC(=N)N)NC(=O)[C@H](CO)NC(=O)[C@@H]1CCCN1C(=O)[C@H](CCCNC(=N)N)NC(=O)[C@H](CCC(=O)O)NC(=O)[C@H](C)NC(=O)[C@@H](N)Cc1ccc(O)cc1)C(=O)N[C@@H](Cc1ccc(O)cc1)C(=O)N[C@@H](CC(C)C)C(=O)N1CCC[C@H]1C(=O)N[C@@H](CC(C)C)C(=O)N[C@@H](CCC(=O)O)C(=O)N1CCC[C@H]1C(=O)O	Mitogen-activated protein kinase 14 (Rattus norvegicus, UniProt P70618)	enzyme activity, inhibitor, fluorescence	–	–	IC50	> 100 µM
CCN1CCC(N(C)C(=O)Cc2ccc(O)cc2Cl)C(C)C1 (stereo not shown)	DNA repair protein RAD52 homolog, with RPA and ssDNA (RAD52, Homo sapiens, UniProt P43351)	inhibitor, FRET	–	–	IC50	54.9 ± 3.1 µM
CC(C)(C)C(=O)OCOP(=O)(CCc1cccc(Cn2c[n+](Cc3cc4cc(Cl)ccc4o3)c3c(=O)[nH]c(N)nc32)c1)OCOC(=O)C(C)(C)C	EIF4E (Homo sapiens, UniProt P06730)	–	human cells	6 h	IC50	14 to 36 µM
O=C1Nc2ccc(-c3ccc(C(=O)N4CCCC4)cc3)cc2/C1=C/c1ccc(N2CCNCC2)cc1	FGFR3 (Homo sapiens, UniProt P22607)	enzyme activity, inhibitor	–	–	IC50	0.163 µM
COC(=O)Cn1nc(-c2ccccc2)c2ccccc21	Trypanothione synthetase (Trypanosoma brucei, UniProt Q586P2)	enzyme activity, inhibitor	–	–	IC50	20 µM
CC(C)n1nc(-c2ccc3cc(OCc4ccccc4)ccc3c2)c2c(N)ncnc21	Tyrosine-protein kinase HCK, SH3 (HCK, Homo sapiens, UniProt P08631, K245P/K248P)	enzyme activity, inhibitor	–	–	IC50	0.013 µM
Cc1ccccc1-c1cc(N2CCCCC2)ccc1N(C)C(=O)C(C)(C)c1cc(C(F)(F)F)cc(C(F)(F)F)c1	TACR1 (Homo sapiens, UniProt P25103)	nuclear ERK activity, antagonist, FRET biosensor	HEK293T	30 to 90 min preincubation, with: substance P 10 nM	IC50	0.603 µM
COc1cc(N2CCN(C)CC2)ccc1Nc1ncc2c(n1)N(C)c1ccc(C)cc1C(=O)N2CC(F)(F)F	DCLK1 (Homo sapiens, UniProt O15075)	enzyme activity, inhibitor, radiometric	–	–	IC50	> 10 µM
O=C1/C=C/C(=O)N[C@@H](CC2CCCCC2)C(=O)N[C@@H](Cc2ccc(F)cc2)C(=O)N[C@@H](Cc2ccc([N+](=O)[O-])cc2)C(=O)NCCC[C@@H](C(=O)O)N1	SRC SH3-SH2-kinase domain	enzyme activity, inhibitor, Z'-LYTE FRET	–	Src residues 83-533, with: 50 µM ATP	IC50	≤ 0.004 µM
CCOC(=O)N1CCC(Oc2nc3c(c(=O)n(C)c(=O)n3C)n2CCC(C)C)CC1	ALDH1B1 (Homo sapiens, UniProt P30837)	–	–	–	IC50	> 57 µM
Cc1ccc(-c2csc(N)n2)cc1	Capsid scaffolding protein, protease domain (Human herpesvirus 8 type P, UniProt Q2HRB6)	protease activity, inhibitor	–	with: fluorogenic peptide substrate	IC50	> 500 µM
